Results from different studies.
Numbered parts are unrelated; each lists some results of a single study. “And” joins repeats or separate records; there may be more than shown.
Sequence of UniProt P50406 (whole entry, looked up): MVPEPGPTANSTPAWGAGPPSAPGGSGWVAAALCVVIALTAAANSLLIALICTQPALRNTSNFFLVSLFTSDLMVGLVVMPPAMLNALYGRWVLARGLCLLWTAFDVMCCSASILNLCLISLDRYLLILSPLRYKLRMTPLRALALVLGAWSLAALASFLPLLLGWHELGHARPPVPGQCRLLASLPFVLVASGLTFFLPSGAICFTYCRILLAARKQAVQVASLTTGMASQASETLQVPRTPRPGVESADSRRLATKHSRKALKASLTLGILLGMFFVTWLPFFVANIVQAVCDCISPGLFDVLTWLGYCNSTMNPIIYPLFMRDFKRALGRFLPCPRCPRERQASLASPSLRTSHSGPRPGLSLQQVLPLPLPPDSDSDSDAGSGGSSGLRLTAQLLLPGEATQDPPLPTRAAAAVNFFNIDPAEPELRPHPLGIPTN
Sequence of UniProt O75417 (whole entry, unmodified, looked up): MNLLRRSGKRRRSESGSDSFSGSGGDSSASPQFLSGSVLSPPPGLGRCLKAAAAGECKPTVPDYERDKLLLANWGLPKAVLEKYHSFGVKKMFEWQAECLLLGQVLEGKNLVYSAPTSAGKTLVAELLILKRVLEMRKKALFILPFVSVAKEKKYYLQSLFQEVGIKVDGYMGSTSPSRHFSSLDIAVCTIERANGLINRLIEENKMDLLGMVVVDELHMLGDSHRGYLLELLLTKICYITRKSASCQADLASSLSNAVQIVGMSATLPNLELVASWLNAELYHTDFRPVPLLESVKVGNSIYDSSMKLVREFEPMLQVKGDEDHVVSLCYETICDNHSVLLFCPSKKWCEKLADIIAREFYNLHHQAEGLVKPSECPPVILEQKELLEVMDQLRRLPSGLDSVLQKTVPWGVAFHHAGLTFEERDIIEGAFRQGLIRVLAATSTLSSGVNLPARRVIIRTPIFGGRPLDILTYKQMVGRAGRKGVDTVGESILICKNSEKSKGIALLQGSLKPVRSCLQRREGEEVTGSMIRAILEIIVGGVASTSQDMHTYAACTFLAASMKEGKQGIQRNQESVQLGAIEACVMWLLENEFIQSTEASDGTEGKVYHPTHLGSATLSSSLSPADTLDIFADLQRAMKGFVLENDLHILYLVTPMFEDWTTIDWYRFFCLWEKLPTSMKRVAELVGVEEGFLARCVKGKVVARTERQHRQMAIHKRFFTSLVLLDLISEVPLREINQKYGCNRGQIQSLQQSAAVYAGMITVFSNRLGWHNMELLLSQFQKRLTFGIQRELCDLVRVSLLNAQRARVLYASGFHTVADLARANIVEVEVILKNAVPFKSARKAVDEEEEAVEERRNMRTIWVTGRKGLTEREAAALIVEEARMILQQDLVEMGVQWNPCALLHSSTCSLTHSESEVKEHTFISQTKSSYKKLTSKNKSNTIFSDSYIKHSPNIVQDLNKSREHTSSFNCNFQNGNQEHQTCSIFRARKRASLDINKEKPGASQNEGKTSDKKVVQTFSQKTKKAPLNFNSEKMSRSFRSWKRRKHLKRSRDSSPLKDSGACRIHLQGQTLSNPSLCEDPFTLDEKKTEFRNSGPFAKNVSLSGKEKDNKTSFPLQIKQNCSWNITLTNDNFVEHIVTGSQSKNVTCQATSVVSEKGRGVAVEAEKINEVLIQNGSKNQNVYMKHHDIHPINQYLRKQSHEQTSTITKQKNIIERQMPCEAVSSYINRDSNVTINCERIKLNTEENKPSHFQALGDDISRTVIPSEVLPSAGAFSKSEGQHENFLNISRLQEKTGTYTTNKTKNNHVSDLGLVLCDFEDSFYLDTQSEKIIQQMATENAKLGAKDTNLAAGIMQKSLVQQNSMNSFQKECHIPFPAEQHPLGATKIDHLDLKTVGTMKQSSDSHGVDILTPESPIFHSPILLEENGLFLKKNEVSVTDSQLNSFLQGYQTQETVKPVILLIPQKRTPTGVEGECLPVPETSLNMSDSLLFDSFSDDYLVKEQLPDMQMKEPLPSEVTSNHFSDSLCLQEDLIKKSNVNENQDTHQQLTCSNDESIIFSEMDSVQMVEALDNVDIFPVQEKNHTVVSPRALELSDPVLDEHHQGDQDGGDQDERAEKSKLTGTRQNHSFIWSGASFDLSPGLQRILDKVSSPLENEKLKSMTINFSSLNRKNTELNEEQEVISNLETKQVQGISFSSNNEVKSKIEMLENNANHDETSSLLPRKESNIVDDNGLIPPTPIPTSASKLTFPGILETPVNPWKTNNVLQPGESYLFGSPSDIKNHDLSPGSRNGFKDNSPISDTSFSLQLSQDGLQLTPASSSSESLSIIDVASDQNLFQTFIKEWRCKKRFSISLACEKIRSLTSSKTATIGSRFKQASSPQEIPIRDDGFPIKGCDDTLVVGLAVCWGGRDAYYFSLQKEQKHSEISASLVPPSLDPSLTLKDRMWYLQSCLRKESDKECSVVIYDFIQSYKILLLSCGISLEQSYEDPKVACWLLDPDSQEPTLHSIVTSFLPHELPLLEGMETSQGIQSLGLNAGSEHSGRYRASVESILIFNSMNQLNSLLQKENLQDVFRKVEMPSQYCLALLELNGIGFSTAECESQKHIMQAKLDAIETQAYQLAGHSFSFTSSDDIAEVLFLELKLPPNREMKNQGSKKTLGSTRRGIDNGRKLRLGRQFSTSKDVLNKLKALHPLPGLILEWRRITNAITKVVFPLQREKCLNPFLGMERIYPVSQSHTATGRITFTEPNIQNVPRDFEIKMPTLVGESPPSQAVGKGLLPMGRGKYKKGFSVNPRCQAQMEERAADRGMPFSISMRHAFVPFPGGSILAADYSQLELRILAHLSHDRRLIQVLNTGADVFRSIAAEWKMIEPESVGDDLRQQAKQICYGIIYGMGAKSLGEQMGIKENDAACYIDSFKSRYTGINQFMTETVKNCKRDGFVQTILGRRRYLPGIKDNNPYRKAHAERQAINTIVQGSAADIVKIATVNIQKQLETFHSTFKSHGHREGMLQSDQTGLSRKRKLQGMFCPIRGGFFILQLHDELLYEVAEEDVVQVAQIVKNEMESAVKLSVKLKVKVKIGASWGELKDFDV
Sequence of UniProt Q5BJF2 (whole entry, looked up): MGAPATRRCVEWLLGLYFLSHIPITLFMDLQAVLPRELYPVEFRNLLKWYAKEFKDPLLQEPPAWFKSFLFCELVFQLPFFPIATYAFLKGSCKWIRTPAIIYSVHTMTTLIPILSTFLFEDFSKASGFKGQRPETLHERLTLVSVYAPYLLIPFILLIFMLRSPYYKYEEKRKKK
Sequence of UniProt P25100 (whole entry, looked up): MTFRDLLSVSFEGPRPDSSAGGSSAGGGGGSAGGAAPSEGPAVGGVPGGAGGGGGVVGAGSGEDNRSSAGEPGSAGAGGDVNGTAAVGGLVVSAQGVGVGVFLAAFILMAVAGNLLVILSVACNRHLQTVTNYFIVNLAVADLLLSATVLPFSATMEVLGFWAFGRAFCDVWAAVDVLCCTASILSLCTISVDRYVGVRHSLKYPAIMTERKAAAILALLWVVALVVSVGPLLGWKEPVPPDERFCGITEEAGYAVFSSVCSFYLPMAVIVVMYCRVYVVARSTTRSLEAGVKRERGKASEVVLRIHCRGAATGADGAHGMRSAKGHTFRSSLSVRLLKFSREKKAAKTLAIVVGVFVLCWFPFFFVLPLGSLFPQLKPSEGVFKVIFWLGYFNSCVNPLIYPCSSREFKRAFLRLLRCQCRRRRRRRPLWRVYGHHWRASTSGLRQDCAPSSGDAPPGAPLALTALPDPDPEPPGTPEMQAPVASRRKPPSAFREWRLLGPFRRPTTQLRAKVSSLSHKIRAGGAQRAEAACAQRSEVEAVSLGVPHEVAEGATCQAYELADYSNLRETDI

Set 1 — effect on: ligand displacement; concentration: 10 µM; measurement: inhibition
SMILES: O=C(NCc1ncc(C(F)(F)F)cc1Cl)c1ccc2c(c1)C1(CCS(=O)(=O)CC1)[C@H](C1CC1)N2S(=O)(=O)c1ccc(F)cc1
HTR6 (Homo sapiens, UniProt P50406): -13.8%
TMEM97 (Homo sapiens, UniProt Q5BJF2): 74.9%
ADRA1D (Homo sapiens, UniProt P25100): 4.13%

Set 2 — effect on: enzyme activity; mode: inhibitor; concentration: 0.5 µM; reference: control; measurement: remaining activity
Target: Mitogen-activated protein kinase 10 (MAPK10, Homo sapiens, UniProt P53779)
Sequence of UniProt P53779 (whole entry, looked up): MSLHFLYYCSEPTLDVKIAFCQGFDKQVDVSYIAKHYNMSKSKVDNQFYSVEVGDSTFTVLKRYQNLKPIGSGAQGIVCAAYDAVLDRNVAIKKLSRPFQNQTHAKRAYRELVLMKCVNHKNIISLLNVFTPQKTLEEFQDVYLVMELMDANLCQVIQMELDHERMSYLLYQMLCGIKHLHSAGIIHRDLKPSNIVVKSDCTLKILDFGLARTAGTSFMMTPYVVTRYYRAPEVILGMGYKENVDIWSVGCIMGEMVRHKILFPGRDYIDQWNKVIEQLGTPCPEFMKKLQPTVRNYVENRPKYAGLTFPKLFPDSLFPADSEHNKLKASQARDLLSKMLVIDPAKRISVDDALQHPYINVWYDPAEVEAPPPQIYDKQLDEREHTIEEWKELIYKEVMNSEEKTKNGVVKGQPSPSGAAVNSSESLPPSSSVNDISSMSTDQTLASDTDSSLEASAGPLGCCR
CO[C@H]1C[C@@H]2CC[C@@H](C)[C@@](O)(O2)C(=O)C(=O)N2CCCC[C@H]2C(=O)O[C@H]([C@H](C)C[C@@H]2CC[C@@H](O)[C@H](OC)C2)CC(=O)[C@H](C)/C=C(\C)[C@@H](O)[C@@H](OC)C(=O)[C@H](C)C[C@H](C)/C=C/C=C/C=C/1C: 95.9%
Cn1c2ccccc2c2c3c(c4c5ccccc5n(CCC#N)c4c21)CNC3=O: 94.5%
CCOC(=O)c1c(C)[nH]c(/C=C2\C(=O)Nc3ccccc32)c1C: 86.8%
O=C(O)c1ccc2c3c1cccc3c(=O)n1c3ccccc3nc21: 108%
Nc1ccc2ncnc(NCCc3ccc(Oc4ccccc4)cc3)c2c1: 104%
O=S(=O)(c1cccc2cnccc12)N1CCCNCC1: 85.3%
CN(C)c1ccc(C=C2C(=O)Nc3ccccc32)cc1: 82.9%
COc1cc2ncnc(Nc3ccc(F)c(Cl)c3)c2cc1OCCCN1CCOCC1: 102%
O=c1c2ccccc2[nH]c(=S)n1CCN1CCC(=C(c2ccc(F)cc2)c2ccc(F)cc2)CC1: 76.2%
N#CC(C#N)=C(N)/C(C#N)=C/c1ccc(O)cc1: 98.8%
OCC(O)CCON=C1C(c2c(O)[nH]c3ccccc23)=Nc2ccccc21 (centres unmarked): 103%
O=C1NC(=O)C(c2cn(CCCn3ccnc3)c3ccccc23)=C1Nc1ccccc1: 100%
O=C(CCCc1ccc(-c2ccccc2F)cc1)Nc1ccc(O)cc1: 100%

Set 3 — technique: resazurin; measurement: cytotoxicity
SMILES: c1ccc(Oc2ccc(Nc3c4c(nc5ccccc35)CCC4)cc2)cc1
RAW264.7; 1.66 µM: 11% and -9%
J774.1; 0.066 µM: -6% and -8%
J774.1; 0.0332 µM: -6% and -4%
HepG2; 0.32 µM, 48 h: 7% and 3%

Set 4 — species: human; matrix: microsomes or S9; concentration: 2 µM; time: 0.5 h; measurement: remaining compound
Cc1cc(C)c2c(=O)n(CC(=O)NCc3ccc4c(c3)OCO4)c(=O)n(-c3ccccc3)c2n1: 98.6%
COC(=O)C(O)c1c(C)nc2[nH]c3c(c2c1Cl)CCCC3 (centres unmarked): 60.4%
Cc1cc(C)c(S(=O)(=O)NCc2nc(N)n(S(=O)(=O)c3c(C)cc(C)cc3C)n2)c(C)c1: 3.93%
CC(=O)Nc1cccc(NS(=O)(=O)c2c(C)nc(O)[nH]c2=O)c1: > 100%
CC1CN(C(=O)c2cnc3n(c2=O)CCS3)C(C)CO1 (centres unmarked): 87.3%
CCn1cc(C(=O)NCCNC(=O)c2cn(CC)nc2C)c(C)n1: 96.9%
O=C1CCc2cc(C(=O)N3CCc4sc(Br)cc4C3)c(F)cc2N1: 25.5%

Single results of other studies
C=C1C(=O)O[C@@H]2[C@H]3O[C@]3(C)CC/C=C(\C)CC[C@@H]12 — remaining activity (DNA polymerase theta, ATPase domain (POLQ, Homo sapiens, UniProt O75417); ssDNA-stimulated ATPase activity, inhibitor, ADP-Glo luminescence; 77 µM; reference: DMSO): 124%
CC(C)n1cnc(-c2ccc(F)cc2)c1-c1ncc(C(=O)Nc2ccc(N3CCN(C)CC3)cc2)[nH]1 — treatment-related AEs (human, idiopathic pulmonary fibrosis; 30 mg twice daily, trial, with standard of care): 62.5%

Repeated from above (set 2):
CCOC(=O)c1c(C)[nH]c(/C=C2\C(=O)Nc3ccccc32)c1C: 86.8%
N#CC(C#N)=C(N)/C(C#N)=C/c1ccc(O)cc1: 98.8%
